Published values from different studies.
A part holds a random share of what one study measured.

Sample 1
Target: PABPC1L2, full length, GST fusion (mouse, UniProt A0ABA7IW68)
Technique: RNAcompete
Molecule type: RNA
Medium: in vitro
Tested at: 20 nM
Notes: 7-mer, probes averaged, single round
Baseline: mean of 7-mers
Direction: higher = stronger binding
Residues (chain): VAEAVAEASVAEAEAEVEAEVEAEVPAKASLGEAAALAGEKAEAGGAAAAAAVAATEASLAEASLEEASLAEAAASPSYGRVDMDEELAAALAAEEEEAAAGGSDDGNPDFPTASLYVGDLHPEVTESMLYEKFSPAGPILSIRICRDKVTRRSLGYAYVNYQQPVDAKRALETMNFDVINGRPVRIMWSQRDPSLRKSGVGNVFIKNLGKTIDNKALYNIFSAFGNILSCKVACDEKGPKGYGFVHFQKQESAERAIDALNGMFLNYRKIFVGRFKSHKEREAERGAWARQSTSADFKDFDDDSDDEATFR
| Strand | 7-mer Z-score |
| --- | --- |
| CAAAUGG | 0.196 |
| GCUAUAC | -0.0899 |
| AAAAAGU | 17.8 |
| GAGAUAG | -0.0518 |
| GACGCGG | -0.0355 |
| GGCGAAU | 0.0605 |
| UUACGGC | -0.0899 |
| UAUGGAU | -0.00108 |
| UUAUAUU | -0.238 |

Sample 2
Target: RING finger protein unkempt homolog, zinc fingers 1-6, GST-SBP tag (UNK, Homo sapiens, UniProt Q9C0B0, residues 30-357)
Sequence of UniProt Q9C0B0 (30-357, looked up): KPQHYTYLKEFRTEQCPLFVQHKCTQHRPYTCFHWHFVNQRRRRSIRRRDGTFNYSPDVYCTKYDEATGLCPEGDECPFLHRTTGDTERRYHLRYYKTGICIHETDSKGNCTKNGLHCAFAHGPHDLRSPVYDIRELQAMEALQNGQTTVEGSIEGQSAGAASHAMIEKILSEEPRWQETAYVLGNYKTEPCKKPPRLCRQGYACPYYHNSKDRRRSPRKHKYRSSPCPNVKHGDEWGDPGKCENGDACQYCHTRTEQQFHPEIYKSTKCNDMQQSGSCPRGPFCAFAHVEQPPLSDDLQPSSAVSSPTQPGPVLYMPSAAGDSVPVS
Technique: RNA Bind-n-Seq
Molecule type: RNA
Medium: in vitro
Tested at: not given
Notes: RNA with constant flanks, human-mouse chimeric sites, ends assumed
Baseline: input RNA pool
Direction: higher = stronger binding
Shared flanks, not repeated: GGGAGUUCUACAGUCCGACGAUC … CAACAGAGGAUUGAGCAUCA
| Strand | bound/input enrichment [ratio] |
| --- | --- |
| AUAGAUGAAAUUGAUGUGGACCAGGAAGGAAUUGCUGAAAUGAUCCUGGAUGAAAAUGCUAUUGCUCAGGUCCCACGCCCUGGCACAUCUUUGAAACUCCCUGGCACUAAUCAGACAGGA | 0.397 |
| UUCAAAGAAAAGGGCAGCUGUGUCAUUUCAUAAGUAACUCUGGGGGAGGGAAAUUCUGUUCUUUUGUUUAAUUUUCCCCCAGAUAAAGCCAAAGUGUGUGUUGAAGAACUGAGAAAAAAU | 0.183 |
| GGAAUUGCUGAUUCAAGUAAGUUUGAGUAUCACAAUGUUAGCUUUCUAAUUCCACACAAGUACUUGGUUUUUACAGUUUAUAAUCUGACAUCACCCCAGCGCCAUUUGUAAAGAGCAACU | 0.489 |
| CUCAUGGCUGCAGAAACAGGAAGUGGAAAAACUGGUGCAUUUAGUAUUCCCGUUAUCCAGAUAGUUUAUGAAACUCUGAAAGACCAACAGGAAGGAAAGAAAGGGAAAACAACAAUUAAA | 1.34 |
| CUGAAAAACACAGAUAUCAAAGUUGUUGACUUUGGAAGUGCAACGUAUGACGACGAACAUCACAGUACUUUGGUGUCCACAAGGCACUACAGAGCUCCCGAGGUCAUUUUGGCUUUAGGU | 0.143 |
| AUGGAGAAGGAUUCUCUGCCCCGCUUUGUGCGCUCUGAAUUUUAUAAGGAGCUAAUCAAGUAGUCAUUUAGCCAGGCUUCCAAAAGUUGCCCUGUGAUAUUUCCUCCAUCCUUUGUAGCA | 1.81 |
| CAGUCCCCGUGUCCCAGUGCAGGACGAUGUGAACAAAUCGAAGACAUGGACCCUCUAUUGUAGUUCUUUUUUUAAAUAAUGUGCUAUUAUUGUUUGUCUUUUUUUUUUUUUUUUUAAAGA | 15.9 |

Sample 3
Target: RNA binding protein fox-1 homolog 2, RRM domain, GST-SBP tag (RBFOX2, Homo sapiens, UniProt O43251-10, residues 100-194)
Technique: RNA Bind-n-Seq
Molecule type: RNA
Medium: in vitro
Tested at: 365 nM
Notes: natural RNA segment, single round, ends assumed
Baseline: no-protein control
Direction: higher = stronger binding
Shared flanks, not repeated: GGGAGUUCUACAGUCCGACGAUC … UGGAAUUCUCGGGUGCCAA
Residues (chain): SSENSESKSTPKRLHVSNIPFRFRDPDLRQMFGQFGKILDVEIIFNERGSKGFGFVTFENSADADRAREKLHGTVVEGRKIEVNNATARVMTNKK
| Strand | RBNS enrichment (R) |
| --- | --- |
| GCCUUGUGCUGGGACAACCUCUCUCUUGCCUUACCUCAGAGAGGGACUAUGCCCUGACCCCUCCUUUCUGAAAAUCAGUGCCCUCCCUGUUGCUCUAGGAGGCUCCUGCU | 0.349 |
| GUAUGAAUAUUACUCAAAGUUAUGUUAGUCUUUUUUUCCGACUUGGUUCUUGUCAGCUAGGUUUAAAGGUAUUUCACUGAGAACGCAAAUUCUGUCUUUUCUUGAUUUCG | 0.354 |
| GCACCCAUUUUUGAGAAAGCUGGUUCUACAUGGGGGGAUAGCUGUGGAAUAGAUAAUUUGCUGCAUGUUAAUUCUCAAGAACUAAGCCUGUGCCAGUGCUUUCCUAAGCA | 14.4 |
| GUUCCCUUAUUCUGGGGAUUACAAUGCUUUUAUCGUUUCAGGCUUCAUUUUAGCUUCAAAACAAGCUGGGCACACUGUUAAAUCAUGAUUUUGCAGAACCUUUGGUUUUG | 0.321 |
| AGCGCUGAGGGCCAGGGUCUUGUGCUGUGGGGCUGGGGGAUGCCCUCUUUUCUAUAUUUAUUUCAUAGAAAGUCUCCUGCGGGAGCGGAAAUGCAGUCCGGCCUAGGGCU | 0.869 |
| CAGGCUCAAAGGAGAUAUGUAUAAGAAAGUGGUUUGUAAAUUAUGUUCCAUUUCAUAAAUAGACACUAUUCACAAACUAAAAUCUAAUAAAAAACCACAGUUGUAAUUUA | 0.471 |
| UCUUCUGGGAACCCUGCCCACUCCCAGGACCAAGAUUGGCCUGAGGCUGCACUAAAAUUCACUUAGGGUCGAGCAUCCUGUUUGCUGAUAAAUAUUAAGGAGAAUUCAUG | 1.02 |
| UUCUAGUGCUCUUAUAUGUCUUUAAUUAUAGGACUGGAAUGAAAAGCUUAACCAUACAGUAUUUCUAAGCAAAAUAAUGUACUCCAUUCUUUUGUCCAUGCUCUCAUUGC | 0.622 |
| UAAAUUCUCAGGUCAGAACAUAACAUUUCUCAUUUGUUAAAAGCAGCAAGAAGCCUGGUAAAACUGUGACUUUUCCCCAAACGUCAAUCUUUAUUAGAAAGCAUUUUCUA | 0.525 |

Mixed results
| Molecule | target | assay | test system | setting | scale | endpoint | result |
| --- | --- | --- | --- | --- | --- | --- | --- |
| PhoQ, residues 284 288 289 292 302 303 WSHMKI | PhoP, residues 12 14 15 18 19 GHCSL (Escherichia coli, UniProt P23836) | Sort-seq, item: YFP reporter | E. coli | PhoQ-PhoP variant library, with: 10 µM Mg2+ | baseline: high Mg2+ state, higher = stronger signaling | fold induction | 2.48 |

A few entries again (sample 3):
| Strand | RBNS enrichment (R) |
| --- | --- |
| GUUCCCUUAUUCUGGGGAUUACAAUGCUUUUAUCGUUUCAGGCUUCAUUUUAGCUUCAAAACAAGCUGGGCACACUGUUAAAUCAUGAUUUUGCAGAACCUUUGGUUUUG | 0.321 |
| AGCGCUGAGGGCCAGGGUCUUGUGCUGUGGGGCUGGGGGAUGCCCUCUUUUCUAUAUUUAUUUCAUAGAAAGUCUCCUGCGGGAGCGGAAAUGCAGUCCGGCCUAGGGCU | 0.869 |
| GCCUUGUGCUGGGACAACCUCUCUCUUGCCUUACCUCAGAGAGGGACUAUGCCCUGACCCCUCCUUUCUGAAAAUCAGUGCCCUCCCUGUUGCUCUAGGAGGCUCCUGCU | 0.349 |
| UUCUAGUGCUCUUAUAUGUCUUUAAUUAUAGGACUGGAAUGAAAAGCUUAACCAUACAGUAUUUCUAAGCAAAAUAAUGUACUCCAUUCUUUUGUCCAUGCUCUCAUUGC | 0.622 |
